{"data": "Assay results from different studies", "note": "Lines come from different studies, so protocols differ. ± gives the spread as reported."}
{"Structure (SMILES)": "COc1ccccc1-c1n[nH]c2nc(N[C@H]3CC[C@H](NS(=O)(=O)CC(C)C)CC3)ncc12", "assay": "bead binding, competition bead pull-down, item: LINJ.36.4680", "test system": "Leishmania donovani extract", "setting": "10 µM", "how to read": "relative to: vehicle", "measurement": "relative abundance", "result": 0.47}
{"Structure (SMILES)": "Nc1nc2ccc([S+]([O-])c3cn[nH]c3)cc2s1 (stereo not shown)", "target or system": "Pseudomonas aeruginosa", "assay": "swarming area, modified FAB agar", "test system": "PA14-lux", "setting": "200 µM, 24 h", "how to read": "relative to: DMSO vehicle", "measurement": "inhibition", "result": "16.4%"}
{"Structure (SMILES)": "COc1ccccc1-c1n[nH]c2nc(NC3CCN(C(=O)Cc4ccc(F)cc4F)CC3)ncc12", "assay": "bead binding, competition bead pull-down, item: LMJF.31.2280", "test system": "Leishmania donovani axenic amastigote extract", "setting": "10 µM", "how to read": "relative to: vehicle", "measurement": "relative abundance", "result": 1.08}
{"Structure (SMILES)": "O=C1NC2(CC2)COc2ncc(F)cc2[C@H]2COCCN2c2ccn3ncc1c3n2", "test system": "Sprague-Dawley rat, female, heart", "setting": "oral, 20 mg/kg/day, 4 weeks dosing, end of recovery", "measurement": "organ-to-brain weight ratio", "result": "58.8 ± 2.68%"}
{"Structure (SMILES)": "CCOC(=O)C1(CC)Oc2cc(F)ccc2N(CC)C1=O (stereo not shown)", "target or system": "Arabidopsis thaliana", "assay": "stem length, petri dish germination", "test system": "Col-0, 1/2 MS medium", "setting": "50 µg/mL, 7 days, 22 °C, dark", "measurement": "inhibition", "result": "78.3%"}
{"Structure (SMILES)": "O=C(NNc1ccccc1)c1nnc(C23CC4CC(CC(C4)C2)C3)o1", "target or system": "Botryosphaeria dothidea", "assay": "fungal growth, inhibitor", "setting": "50 µg/mL", "measurement": "inhibition", "result": "100%"}
{"Structure (SMILES)": "CCOC(=O)C1(Cc2ccc(C#N)cc2F)Oc2cc(F)ccc2N(Cc2ccc(C#N)cc2F)C1=O (stereo not shown)", "target or system": "Arabidopsis thaliana", "assay": "stem length, petri dish germination", "test system": "Col-0, 1/2 MS medium", "setting": "200 µg/mL, 7 days, 22 °C, dark", "measurement": "inhibition", "result": "42.9%"}
{"Structure (SMILES)": "CC(C)(C)C(=O)OCOP(=O)(OCOC(=O)C(C)(C)C)C1CCCN(O)C1=O (stereo not shown)", "target or system": "NCI-H460", "measurement": "GI50", "result": "561 nM"}
{"Structure (SMILES)": "Cc1ccc(N2CC3CC(C2)N3C)cc1C(=O)NC1(c2ccc3c4c(cccc24)C(=O)N3C)CC1", "target or system": "Betacoronavirus 1", "assay": "viral replication", "test system": "Huh-7, OC43", "setting": "12.5 µM", "measurement": "inhibition", "result": "0%"}
{"Structure (SMILES)": "CCOC(=O)C1(Cc2ccc(OC)cc2)Oc2cc(F)ccc2N(Cc2ccc(OC)cc2)C1=O (stereo not shown)", "target or system": "Arabidopsis thaliana", "assay": "root length, petri dish germination", "test system": "Col-0, 1/2 MS medium", "setting": "50 µg/mL, 7 days, 22 °C, dark", "measurement": "inhibition", "result": "17.1%"}
{"Structure (SMILES)": "COc1ccc2nc3cc(Cl)ccc3c(NCCNC(C)=C3C(=O)C=C4Oc5c(C(C)=O)c(O)c(C)c(O)c5C4(C)C3=O)c2c1 (stereo not shown)", "target or system": "Plasmodium berghei", "assay": "parasitaemia", "test system": "ANKA GFP, mouse NMRI", "setting": "intraperitoneal, 4 × 50 mg/kg, day 4 post infection", "measurement": "inhibition", "result": "0%"}
{"Structure (SMILES)": "C[C@H](NC(=O)[C@@H](O)c1cc(F)cc(F)c1)C(=O)N[C@@H]1C(=O)N(C)c2ccccc2-c2ccccc21", "target or system": "dengue virus 2", "assay": "viral infection, luciferase reporter virus", "setting": "30 nM, 48 h", "measurement": "inhibition", "result": "99.6%"}
{"Structure (SMILES)": "CC(C)C[C@H](NC(=O)CN)C(=O)N[C@@H](CCCCN)C(=O)N[C@@H](CCCCN)C(=O)N[C@@H](CS)C(=O)NCC(=O)N[C@@H](CCCCN)C(=O)N[C@@H](CCCCN)C(=O)N[C@@H](CCCCN)C(=O)N[C@@H](CC(C)C)C(=O)N[C@@H](CCCCN)C(=O)N[C@@H](CCCCN)C(=O)N[C@@H](CS)C(=O)O", "target or system": "Candida albicans", "assay": "growth", "test system": "ATCC 10231, potato dextrose broth", "setting": "128 µM, 30 °C", "measurement": "inhibition", "result": "0.975 fraction (0-1)"}
{"note": "For quick reference, copied from above:"}
{"Structure (SMILES)": "CCOC(=O)C1(Cc2ccc(C#N)cc2F)Oc2cc(F)ccc2N(Cc2ccc(C#N)cc2F)C1=O (stereo not shown)", "target or system": "Arabidopsis thaliana", "assay": "stem length, petri dish germination", "test system": "Col-0, 1/2 MS medium", "setting": "200 µg/mL, 7 days, 22 °C, dark", "measurement": "inhibition", "result": "42.9%"}
{"Structure (SMILES)": "CC(C)(C)C(=O)OCOP(=O)(OCOC(=O)C(C)(C)C)C1CCCN(O)C1=O (stereo not shown)", "target or system": "NCI-H460", "measurement": "GI50", "result": "561 nM"}
